Assay results collected from several papers.
Each line is one published result; not all experiments were run side by side. Several values in a cell are separate wells, animals, samples, runs or records. Numbers after ± are the reported error.
Chain of UniProt P03372 (whole entry, looked up): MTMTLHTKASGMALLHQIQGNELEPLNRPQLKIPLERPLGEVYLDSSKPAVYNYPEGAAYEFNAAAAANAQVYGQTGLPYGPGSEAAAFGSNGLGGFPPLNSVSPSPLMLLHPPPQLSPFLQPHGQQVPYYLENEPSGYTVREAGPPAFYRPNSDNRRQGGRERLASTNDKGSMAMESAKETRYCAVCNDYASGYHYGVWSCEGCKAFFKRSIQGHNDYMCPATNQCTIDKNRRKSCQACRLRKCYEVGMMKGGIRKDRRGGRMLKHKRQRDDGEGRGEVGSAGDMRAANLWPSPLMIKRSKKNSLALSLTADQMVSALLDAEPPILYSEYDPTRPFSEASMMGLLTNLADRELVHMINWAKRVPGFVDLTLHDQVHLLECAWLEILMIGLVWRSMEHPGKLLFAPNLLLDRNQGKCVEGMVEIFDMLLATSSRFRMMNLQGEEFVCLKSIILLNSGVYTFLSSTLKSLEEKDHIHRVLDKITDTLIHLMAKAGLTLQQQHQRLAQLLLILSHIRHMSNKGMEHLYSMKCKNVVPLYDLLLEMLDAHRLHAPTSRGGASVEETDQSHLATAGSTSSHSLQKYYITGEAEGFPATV
Chain of UniProt Q9UNQ0 (whole entry, looked up): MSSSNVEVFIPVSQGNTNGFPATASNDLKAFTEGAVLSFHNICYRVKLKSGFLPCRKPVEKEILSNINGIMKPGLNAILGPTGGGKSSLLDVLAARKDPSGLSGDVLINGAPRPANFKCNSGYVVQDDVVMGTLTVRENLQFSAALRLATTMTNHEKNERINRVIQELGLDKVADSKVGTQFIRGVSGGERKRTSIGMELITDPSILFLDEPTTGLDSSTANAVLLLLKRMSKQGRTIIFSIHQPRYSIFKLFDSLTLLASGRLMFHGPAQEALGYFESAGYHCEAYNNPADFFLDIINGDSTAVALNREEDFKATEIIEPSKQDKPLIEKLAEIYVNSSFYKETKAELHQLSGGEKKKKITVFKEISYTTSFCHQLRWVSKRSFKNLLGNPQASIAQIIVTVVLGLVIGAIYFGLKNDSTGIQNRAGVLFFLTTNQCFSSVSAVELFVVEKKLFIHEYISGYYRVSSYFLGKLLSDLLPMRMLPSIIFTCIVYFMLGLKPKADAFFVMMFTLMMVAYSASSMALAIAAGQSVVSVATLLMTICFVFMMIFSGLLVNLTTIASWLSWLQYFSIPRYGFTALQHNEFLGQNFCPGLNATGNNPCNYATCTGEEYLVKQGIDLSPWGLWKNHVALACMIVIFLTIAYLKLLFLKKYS

| Structure (SMILES) | target or system | assay | system | setting | scale | measurement | value |
| --- | --- | --- | --- | --- | --- | --- | --- |
| Cc1ccc(N2CCC3(CC2)CN(C)C3)cc1C(=O)N[C@H](C)c1cc(-c2cnn(C)c2)nc2ccccc12 | Vero E6 |  |  | 31.25 µM |  | viability | 94.1% and 89.3% and 94.3% |
| CNC(=O)C[C@H](Cc1ccccc1)NC(=O)[C@@H](Cc1ccc(Cl)cc1Cl)NC(=O)[C@H](N)Cc1ccccc1C#N | Huh-7-ACE2 | CellTiter-Glo |  | 1.562 µM, 48 h, unit not given | reference: DMSO | viability | 0.799 and 1.03 and 0.913 |
| CCCCCC1=C(NCC)C(=O)C(C/C=C(\C)CCC=C(C)C)=C(O)C1=O | human peripheral lymphocytes |  |  | 30 µg/mL, 3 h, without S9, harvest 27 h |  | cytostasis | 32% |
| Cc1nc2cccc(OCC(C)(C)C(=O)NC(C)C)c2c(N)c1C(=O)[O-].[Na+] | Escherichia coli | Ames plate incorporation | WP2 uvrA | 0.13 mg/plate, with: with rat liver S9 |  | revertant colonies | 34 ± 1 colonies/plate |
| CS(C)(=O)=Nc1ccc(-c2ccc(-c3nc4cc(O[C@@H]5CO[C@H]6[C@@H]5OC[C@H]6O)[nH]c4cc3F)cc2)cc1 | Estrogen receptor (ESR1, Homo sapiens, UniProt P03372) | ligand displacement, radioligand |  | 10 µM |  | inhibition | 1% |
| CN(C)CCCNC(=O)[C@@H]1NC(=O)[C@@H]2Cc3ccc(cc3)Oc3cc4cc(c3O)-c3ccc5c(c[nH]c5c3)C[C@@H](NC(=O)C(NC(=O)CCCCCN)c3ccc(O)cc3)C(=O)N[C@H](c3ccc(O)cc3)C(=O)N[C@H]4C(=O)N[C@@H](C(=O)N2C)c2ccc(cc2)Oc2cc1ccc2O (stereo partly shown) | human red blood cells |  |  | 16 µg/mL, 1 h, 37 °C, 1% DMSO |  | hemolysis | 1.42% |
| Cc1ccc(N(C)C2CN(C)C2)cc1C(=O)N[C@H](C)c1cc(-c2cnn(C)c2)nc2ccccc12 | Vero E6 |  |  | 250 µM |  | viability | 0.933% |
| O=C(C=Cc1ccc(O)c(O)c1)OC1CC(O)(C(=O)O)CC(OC(=O)C=Cc2ccc(O)c(O)c2)C1O (stereo not shown) | Vero E6 |  |  | 25 µM |  | cytotoxicity | 0% |
| O=C1NC2(CC2)COc2ncc(F)cc2[C@H]2COCCN2c2ccn3ncc1c3n2 |  |  | Sprague-Dawley rat, male, spleen | oral, 10 mg/kg/day, 4 weeks, end of treatment |  | organ-to-brain weight ratio | 82.1 ± 36.1% |
| Cc1ccc(N2CCN(C)C3(CC3)C2)cc1C(=O)N[C@H](C)c1cc(-c2cnn(C)c2)nc2ccccc12 | Vero E6 |  |  | 31.25 µM |  | viability | 89.2% and 84.8% and 85.6% |
| O=C(O)c1cccc(CP(=O)(O)O)n1 | HepG2 | membrane integrity, CFDA-AM |  | 24 h, without 10% FBS |  | EC50 | > 250 µg/mL |
| C#Cc1ccc(N2CCOCC2)c(/C=N/NC(=O)CCl)c1 | MDA-MB-231 | cell growth or viability, ATP luminescence |  | 24 h |  | IC50 | 5.8 µM |
| CC(=O)NCCCC[C@@H]1NC(=O)[C@H](Cc2c[nH]c3c(C)cccc23)NC(=O)[C@H]([C@@H](C)O)NC(=O)[C@H](CC(N)=O)NC(=O)[C@@H](NC(C)=O)C(C)(C)SSC(C)(C)[C@@H](C(=O)N[C@@H](Cc2ccc(OCCN)cc2)C(=O)N[C@@H](Cc2ccc3ccccc3c2)C(=O)NC2(C(=O)N[C@@H](CCC(=O)O)C(=O)N[C@@H](CC(N)=O)C(=O)N[C@@H](Cc3cccnc3)C(=O)N(C)CC(N)=O)CCOCC2)NC1=O | ABCG2 (Homo sapiens, UniProt Q9UNQ0) | transport, inhibitor | LLC-PK1 expressing ABCG2 | 0.637 µM, 90 min, with: [3H]prazosin |  | efflux ratio | 9.82 |

A few entries again:
| Structure (SMILES) | target or system | assay | system | setting | scale | measurement | value |
| --- | --- | --- | --- | --- | --- | --- | --- |
| Cc1nc2cccc(OCC(C)(C)C(=O)NC(C)C)c2c(N)c1C(=O)[O-].[Na+] | Escherichia coli | Ames plate incorporation | WP2 uvrA | 0.13 mg/plate, with: with rat liver S9 |  | revertant colonies | 34 ± 1 colonies/plate |
